# Measured values of several laboratories.
# Every numbered part comes from another study and shows a few of its results, in no order. Changes are numbered by the printed parent chain.

# Series 1
# Target: CCNB2, cyclin fold, Cln2 fusion (human)
# Technique: yeast growth competition, sequencing
# Matrix: yeast
# Notes: weak parent motif
# Relative to: not given
# Direction: higher = stronger binding
# Parent: PKN2 docking peptide (human); VSAVQKLDFSDTM; partner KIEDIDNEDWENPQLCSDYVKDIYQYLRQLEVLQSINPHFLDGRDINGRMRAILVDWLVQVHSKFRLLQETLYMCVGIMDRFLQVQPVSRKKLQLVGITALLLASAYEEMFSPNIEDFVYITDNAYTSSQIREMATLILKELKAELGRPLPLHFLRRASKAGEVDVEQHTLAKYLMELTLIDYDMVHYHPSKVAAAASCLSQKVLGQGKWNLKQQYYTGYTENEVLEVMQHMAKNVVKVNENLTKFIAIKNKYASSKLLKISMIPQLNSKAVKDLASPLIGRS
Substitution,normalised enrichment score
VHAVQKLDFSDTM [S2H],-0.352
VSAVQKLDFSDTD [M13D],0.194
VSAVQKLDFSDWM [T12W],0.312
VSAVQKLDFSDCM [T12C],0.463
VSAVQKLIFSDTM [D8I],0.0141
PSAVQKLDFSDTM [V1P],0.0876
VAAVQKLDFSDTM [S2A],0.158
VSAVQKNDFSDTM [L7N],-0.357
VSKVQKLDFSDTM [A3K],-0.416
VSANQKLDFSDTM [V4N],-0.615
VSWVQKLDFSDTM [A3W],0.112

# Series 2
# Target: Interferon regulatory factor 5, full length, phosphomimetic (IRF5, Homo sapiens, UniProt Q13568-2, residues 1-514, K96S/S451D/S453D/S456D/S462D)
# Technique: protein-binding microarray
# Molecule type: double-stranded DNA, one strand shown
# Matrix: in vitro
# Tested at: 250 nM
# Notes: 60-bp whole probe
# Added: salmon DNA 0.4 mg/ml
# Relative to: random background probes
# Direction: higher = stronger binding
# Shared flanks, not repeated: GCCTAGCAC … GTCTTGATTCGCTTGACGCTGCTG
Strand,log fluorescence [z-score]
TTAGGTTTCCTATTCCTTTAGTGCTAG,1.02
TCACATATACACATCTTACTGTGCTAG,0.723
TAAGGTATCGACTTTCGGTTAGTGCTA,10
GACGATTCCGGTTTCGGGACGTGCTAG,4.57
TTAGGACTGCTACTGCTTTAGTGCTAG,-0.513
TTAGGTATCGGGACTGGGTGAGTGCTA,1.6
TTCAGTTTTCTTTTCCATTTGTGCTAG,2.18
TTAGATATCAGTCTCAATTAGTGCTAG,1.51
GAAGCCCTCCCTGTGGGGGGGTGCTAG,1.27
GACGGTATCGGATTGGGGACGTGCTAG,1.54

# Series 3
# Target: Histone acetyltransferase KAT6A, both winged helices, GST fusion (KAT6A, Homo sapiens, UniProt Q92794, residues 1-181)
# Technique: protein binding microarray
# Molecule type: double-stranded DNA, one strand shown
# Matrix: in vitro
# Tested at: not given
# Notes: 8-mer, flanks averaged, mean of 2 arrays, mostly near background
# Relative to: not given
# Direction: higher = stronger binding
# Construct (chain): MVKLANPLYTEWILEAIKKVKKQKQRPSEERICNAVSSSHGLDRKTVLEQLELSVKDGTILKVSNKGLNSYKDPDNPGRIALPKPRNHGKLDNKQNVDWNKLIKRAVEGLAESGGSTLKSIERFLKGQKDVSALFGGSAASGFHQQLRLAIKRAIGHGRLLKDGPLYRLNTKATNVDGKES
Strand,E-score
AAAATAAC,-0.0174
AGATCGGA,0.108
GATTGTGC,-0.0163
CGCTACGA,0.15
ACGCGAGA,0.106
CACAATAG,-0.0477
GCTGGCAC,-0.0832
CTGTTGAA,-0.0566
AACGTTGG,0.0041
GACCATGA,-0.0801

# Further values, each from its own experiment
Substance,target,test,system,setting,scale,quantity,result
"PhoQ, residues 284 288 289 292 302 303 AAQSYM","PhoP, residues 12 14 15 18 19 LYHSL (Escherichia coli, UniProt P23836)","Sort-seq, refers to: YFP reporter",E. coli,"PhoQ-PhoP variant library, added: 10 µM Mg2+","relative to: high Mg2+ state, higher = stronger signaling",fold induction,14.7

# For quick reference, copied from above (series 3):
Strand,E-score
GATTGTGC,-0.0163
CGCTACGA,0.15
ACGCGAGA,0.106
CACAATAG,-0.0477
